Assay results of several laboratories.
“And” joins repeats or separate records; there may be more than shown. Numbers after ± are the reported error.
Ugcg: Ceramide glucosyltransferase (Ugcg, Mus musculus, UniProt O88693)
Sequence of UniProt O88693 (whole entry, looked up): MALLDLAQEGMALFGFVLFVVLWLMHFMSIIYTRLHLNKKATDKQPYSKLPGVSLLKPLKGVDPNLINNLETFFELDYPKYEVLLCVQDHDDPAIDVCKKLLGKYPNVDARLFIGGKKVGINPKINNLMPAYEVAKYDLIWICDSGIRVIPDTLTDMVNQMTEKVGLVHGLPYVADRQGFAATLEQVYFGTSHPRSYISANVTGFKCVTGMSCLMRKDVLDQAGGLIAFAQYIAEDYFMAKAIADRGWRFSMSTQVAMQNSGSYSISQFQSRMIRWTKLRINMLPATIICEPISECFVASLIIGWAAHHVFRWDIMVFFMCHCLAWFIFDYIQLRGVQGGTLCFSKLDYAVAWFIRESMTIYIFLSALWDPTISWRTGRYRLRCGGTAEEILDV

Compound	target or system	test	system	conditions	scale	measurement	value
C=C(NC(=O)c1csc(-c2nc3c(cc2O)-c2nc(cs2)C(=O)NC(C(C)O)C(=O)NC(=C(C)OC)c2nc(cs2)C(=O)NC2c4nc(cs4)C(=O)NC(COC(=O)c4c5c6c(cccc6n4O)COC(=O)C(OC4CC(C)(O)C(N(C)C)C(C)O4)C2OC5)c2nc-3cs2)n1)C(N)=O (centres unmarked)	–	–	male Sprague-Dawley rat, plasma	intravenous, 2 mg/kg, single dose, infusion	–	half-life	2.5 h
O=C(CN1CN(c2ccc(Cl)c(Cl)c2)C2(CCN(C(=O)c3ccc4[nH]ncc4c3)CC2)C1=O)NCC(F)(F)F	–	–	human liver microsomes	–	–	CLint	350 µL/min/mg protein
CCC(=O)N(C)c1ccc(Cl)c(Cl)c1	–	–	mouse C57BL/6, female, plasma	intravenous, 2 mg/kg, 2 h	–	plasma concentration	23.4 ng/mL
COc1cccc(OC)c1-c1cc(C(=O)NC2(C(=O)O)C3CC4CC(C3)CC2C4)nn1-c1ccc(C(=O)N(C)CCCN(C)CCCN(C)C(=O)[C@H](CCCCNC(=O)[C@H](CC(C)C)NC(=O)C2OC2C(=O)O)NC(=O)CN2CCN(CC(=O)[O-])CCN(CC(=O)[O-])CCN(CC(=O)[O-])CC2)cc1C(C)C.[177Lu+3] (mixture of isomers)	–	–	mouse, HT-29 xenograft	4 h post injection, biodistribution	relative to: tumour over bone uptake	tumour-to-bone ratio	14.8
O=C(Nc1ccc(C2CCCCC2)cc1)C1CC1	–	liver microsome stability	dog liver microsomes	1 µM	–	hepatic clearance	28 mL/min/kg
CCN(CC)c1ccc2c(c1)O[B-]1(c3ccccc3)OC(=O)C(c3ccccc3)=N[N+]1=C2C (centres unmarked)	–	–	toluene	–	–	fluorescence lifetime	2.67 ns
O=C(Nc1cnccc1-c1ccc([18F])cc1)c1ccnc(NC(=O)C2CC2)c1	–	ex vivo biodistribution, gamma counting	GSK-3β overexpressing transgenic mouse, late stage, brain stem	intravenous, 120 min post-injection, together with: tariquidar 15 mg/kg iv, at least 120 min before tracer	–	mean SUV	0.24
CC1(C)CC[C@]2(NC(=O)C(C)(F)F)CC[C@]3(C)[C@H](C(=O)C=C4[C@@]5(C)C=C(C#N)C(=O)C(C)(C)[C@@H]5CC[C@]43C)[C@@H]2C1	–	–	human, plasma	oral, 150 mg, alone, geometric least-squares mean	–	AUC(0-inf)	1380 ng·h/mL
O=C(CC(F)(F)F)Nc1ccc(C2CCCCC2)cc1	–	liver microsome stability	dog liver microsomes	1 µM	–	hepatic clearance	28 mL/min/kg
COCC1CN(C2CCN(c3cc(OC)c(Nc4ncc(Br)c(Nc5ccc6c(c5P(C)(C)=O)OCCO6)n4)cc3C)CC2)C1	–	–	EGFR-mutant NSCLC patients, plasma	oral, 90 mg single dose, geometric mean	–	t1/2	29.3 h
COC(=O)[C@@]1(C)C=C(C(=O)Nc2cccc(C(=O)Nc3ccc(Nc4nccc(-c5cccnc5)n4)c(C)c3)c2)C(=O)CC1	–	–	Wistar rat, male, plasma	1 µM, 120 min	–	compound remaining	2.4%
CCCC[C@H](NC(=O)CNC(=O)CNC(=O)[C@H](CCCCNC(=O)C(C)c1ccc(CC(C)C)cc1)NC(=O)CN1CCN(CC(=O)O)CCN(CC(=O)O)CCN(CC(=O)O)CC1)C(=O)N[C@H]1CC(=O)NCCCC[C@@H](C(N)=O)NC(=O)[C@H](Cc2c[nH]c3ccccc23)NC(=O)[C@H](CCCNC(=N)N)NC(=O)[C@@H](Cc2ccccc2)NC(=O)[C@H](Cc2c[nH]cn2)NC1=O (some centres unmarked) [lutetium-177 labelled]	–	–	C57 mouse, urine	2 h	–	urinary excretion	70.2 ± 4.55%
Cc1ncsc1-c1ccc(CNC(=O)[C@@H]2C[C@@H](O)CN2C(=O)[C@@H](NC(=O)COCC(C)(COCCOCCOCCNC(=O)C[C@@H]2N=C(c3ccc(Cl)cc3)c3c(sc(C)c3C)-n3c(C)nnc32)COCCOCCOCCNC(=O)C[C@@H]2N=C(c3ccc(Cl)cc3)c3c(sc(C)c3C)-n3c(C)nnc32)C(C)(C)C)cc1	–	–	male C57BL/6 mice, plasma	subcutaneous, 5 mg/kg, 15 min, 20-fold diluted sample	–	plasma concentration	871 ng/mL and 1240 ng/mL
C=CC(=O)Nc1cc(Nc2nccc(-c3c[nH]c4ccccc34)n2)c(OC)cc1N(C)CCN(C)C	–	storage stability	human dried blood spots	72 h, on ice, medium QC level	–	recovery	64.2%
CC(C)CC(=O)Nc1ccc([C@H]2[C@@H](F)[C@@H](F)C[C@@H](F)[C@H]2F)cc1	–	hepatocyte stability	cryopreserved rat hepatocytes	1 µM	–	hepatic clearance	26 mL/min/kg
C[C@]12COc3ccc(Oc4ccccc4)cc3[C@H]1CCN2	–	lipid PAMPA	PBS	10 µM, 16 h, pH 7.4, 25 °C	–	permeability (Pe)	3.16 ×10⁻⁶ cm/s
COC1C=COC2(C)Oc3c(C)c(O)c4c(c3C2=O)C2=NC3(CCN(CC(C)C)CC3)NC2=C(NC(=O)C(C)=CC=CC(C)C(O)C(C)C(O)C(C)C(OC(=O)Nc2cccnn2)C1C)C4=O (centres unmarked)	–	–	CD-1 mouse, plasma	oral, dose not given, efficacy dose	–	fAUC/MIC ratio	163
CCCCCCOCCCCCN1C[C@H](O)[C@@H](O)[C@H](O)[C@H]1CO	Ugcg	enzyme activity, inhibitor, fluorescence	–	–	–	IC50	1 µM
O=C(NCCOc1ccc(F)cc1)c1ccc([C@H]2[C@@H](F)[C@@H](F)C[C@@H](F)[C@H]2F)cc1	–	hepatocyte stability	cryopreserved human hepatocytes	1 µM	–	hepatic clearance	9.4 mL/min/kg
OC[C@@H]1[C@@H](O)[C@H](O)[C@@H](O)CN1CCCCCOCc1ccc(-c2cncnc2)cc1	Ugcg	enzyme activity, inhibitor, fluorescence	–	–	–	IC50	2 µM
CNC(=O)c1ccc(C2CCCCC2)cc1	–	hepatocyte stability	cryopreserved rat hepatocytes	1 µM	–	hepatic clearance	49 mL/min/kg
Cc1cc(-c2ccc(C(=O)[C@@H]3CCCC[C@H]3C(=O)Nc3cnn4c3C(=O)NCC4)cc2)[nH]n1	–	–	human, faeces	oral, 200 mg, 264-288 h	relative to: dose	radioactivity recovery per interval	0.31%
O=C(c1ccc([C@H]2[C@@H](F)[C@@H](F)C[C@@H](F)[C@H]2F)cc1)N1CCC(F)CC1	–	hepatocyte stability	cryopreserved human hepatocytes	1 µM	–	hepatic clearance	6.2 mL/min/kg
O=C(Nc1cnccc1-c1ccc([18F])nc1)c1ccnc(NC(=O)C2CC2)c1	–	ex vivo gamma counting	GSK-3β transgenic mice, early-stage, adipose tissue	intravenous, 120 min, together with: tariquidar 15 mg/kg iv	–	mean SUV	0.117
O=C(CCC(F)(F)F)Nc1ccc([C@H]2[C@@H](F)[C@@H](F)C[C@@H](F)[C@H]2F)cc1	–	liver microsome stability	rat liver microsomes	1 µM	–	hepatic clearance	13 mL/min/kg
O=C(c1ccc(-c2ccccc2)cc1)N1CCCCC1	–	metabolic stability	human, liver microsomes	2 µM, 15 min, pH 7.4	–	compound remaining	97%
CS(=O)(=O)c1ccc(-c2ccc(C3CCCCC3)cc2)cn1	–	hepatocyte stability	cryopreserved rat hepatocytes	1 µM	–	hepatic clearance	38 mL/min/kg
COc1cccc(OC)c1-c1cc(C(=O)NC2(C(=O)O)C3CC4CC(C3)CC2C4)nn1-c1ccc(C(=O)NCCNC(=O)[C@H](CCCCNC(=O)[C@H](CC(C)C)NC(=O)C2OC2C(=O)O)NC(=O)CN2CCN(CC(=O)[O-])CCN(CC(=O)[O-])CCN(CC(=O)[O-])CC2)cc1C(C)C.[177Lu+3] (mixture of isomers)	–	–	mouse, HT-29 xenograft	168 h post injection, biodistribution	relative to: tumour over bone uptake	tumour-to-bone ratio	5.95
CC[C@H](C)[C@@H]1NC(=O)[C@H](Cc2ccc(O)cc2)NC(=O)CCCSC[C@@H](C(=O)N(CC(=O)N[C@@H](CC(C)C)C(=O)NCC(N)=O)Cc2ccc(F)cc2)NC(=O)[C@H](CC(N)=O)NC(=O)[C@H](CCC(N)=O)NC1=O	–	–	human	intranasal, 400 µg repeated doses	–	drug-related headache	17%

Excerpt of the above:
Compound	target or system	test	system	conditions	scale	measurement	value
CC(C)CC(=O)Nc1ccc([C@H]2[C@@H](F)[C@@H](F)C[C@@H](F)[C@H]2F)cc1	–	hepatocyte stability	cryopreserved rat hepatocytes	1 µM	–	hepatic clearance	26 mL/min/kg
C[C@]12COc3ccc(Oc4ccccc4)cc3[C@H]1CCN2	–	lipid PAMPA	PBS	10 µM, 16 h, pH 7.4, 25 °C	–	permeability (Pe)	3.16 ×10⁻⁶ cm/s
CCCCCCOCCCCCN1C[C@H](O)[C@@H](O)[C@H](O)[C@H]1CO	Ugcg	enzyme activity, inhibitor, fluorescence	–	–	–	IC50	1 µM
